Published values gathered from unrelated publications.
A part holds a random share of what one study measured.

Block 1 — technique: universal PBM; form: double-stranded DNA, one strand shown; matrix: in vitro; tested at: 600 nM; reading: higher = stronger binding
Target: Sal-like protein 4, full length isoform A (SALL4, Homo sapiens, UniProt Q9UJQ4, residues 1-1053)
UniProt Q9UJQ4, sequence (whole entry, looked up): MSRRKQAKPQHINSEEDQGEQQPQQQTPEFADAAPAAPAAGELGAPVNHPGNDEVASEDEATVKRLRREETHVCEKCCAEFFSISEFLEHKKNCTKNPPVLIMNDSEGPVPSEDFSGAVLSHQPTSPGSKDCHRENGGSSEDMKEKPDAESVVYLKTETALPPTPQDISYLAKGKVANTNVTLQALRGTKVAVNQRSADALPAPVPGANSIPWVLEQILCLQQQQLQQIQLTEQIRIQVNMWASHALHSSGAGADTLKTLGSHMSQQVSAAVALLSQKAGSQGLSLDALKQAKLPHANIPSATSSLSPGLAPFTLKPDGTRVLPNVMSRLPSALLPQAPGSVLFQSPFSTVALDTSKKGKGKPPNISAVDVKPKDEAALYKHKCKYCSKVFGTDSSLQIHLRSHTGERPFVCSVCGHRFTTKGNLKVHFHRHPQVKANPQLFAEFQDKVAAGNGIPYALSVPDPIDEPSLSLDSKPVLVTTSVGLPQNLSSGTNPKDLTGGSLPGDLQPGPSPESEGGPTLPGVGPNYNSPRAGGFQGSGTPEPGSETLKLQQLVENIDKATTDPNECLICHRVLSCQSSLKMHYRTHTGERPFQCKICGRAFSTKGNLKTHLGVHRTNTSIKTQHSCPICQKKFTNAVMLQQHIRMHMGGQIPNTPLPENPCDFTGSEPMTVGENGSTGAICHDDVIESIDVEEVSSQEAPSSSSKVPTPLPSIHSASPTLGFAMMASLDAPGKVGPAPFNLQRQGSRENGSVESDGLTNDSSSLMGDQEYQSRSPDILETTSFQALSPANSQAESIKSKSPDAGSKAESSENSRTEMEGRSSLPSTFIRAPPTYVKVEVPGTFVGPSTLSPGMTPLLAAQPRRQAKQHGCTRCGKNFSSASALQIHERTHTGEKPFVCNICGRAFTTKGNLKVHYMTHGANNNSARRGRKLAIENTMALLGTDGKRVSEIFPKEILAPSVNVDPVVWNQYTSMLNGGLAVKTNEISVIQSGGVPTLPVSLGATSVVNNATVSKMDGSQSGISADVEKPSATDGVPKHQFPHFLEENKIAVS
Notes: 8-mer, flanks averaged, mean of replicates
With `AAGGTAAC` the E-score was 0.0806.
`GGTCCGCA` has an E-score of -0.283.
With `GCGGGCAC` the E-score was -0.167.
With `AAACGATA` the E-score was 0.239.
With `ATTCATTC` the E-score was 0.267.
`ATAGAACG` gave an E-score of 0.217.
With `ACCGCTAC` the E-score was -0.229.

Block 2 — technique: RNA Bind-n-Seq; form: RNA; matrix: in vitro; tested at: 1 µM; notes: whole 134-nt RNA, ends assumed; with: 150 mM KCl; relative to: input library; reading: higher = stronger binding
Target: Ras GTPase-activating protein-binding protein 1, C-terminal RGG region (G3BP1, Homo sapiens, UniProt Q13283)
UniProt Q13283, sequence (whole entry, looked up): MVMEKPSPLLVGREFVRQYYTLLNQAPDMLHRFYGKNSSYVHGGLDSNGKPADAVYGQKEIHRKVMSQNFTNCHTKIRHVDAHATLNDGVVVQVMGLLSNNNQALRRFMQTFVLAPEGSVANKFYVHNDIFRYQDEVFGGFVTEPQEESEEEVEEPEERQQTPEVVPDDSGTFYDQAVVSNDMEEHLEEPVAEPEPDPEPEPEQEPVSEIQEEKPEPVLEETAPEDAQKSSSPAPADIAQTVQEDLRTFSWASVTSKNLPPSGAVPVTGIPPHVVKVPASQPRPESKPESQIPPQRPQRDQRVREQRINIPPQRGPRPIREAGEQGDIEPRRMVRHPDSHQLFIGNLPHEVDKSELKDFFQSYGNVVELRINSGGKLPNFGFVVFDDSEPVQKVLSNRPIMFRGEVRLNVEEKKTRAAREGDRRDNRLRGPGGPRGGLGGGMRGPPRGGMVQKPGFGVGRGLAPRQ
For `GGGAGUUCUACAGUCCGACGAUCUCAAGUCCUGUGCUACACAUCGUAUGUACCGAAUCGGUUUGGGUUUGGGUUUGGAAAGUAUUAUGUUACGCCGUUCGGAUCUGCACUUCCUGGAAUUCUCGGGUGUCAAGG`, the log2 enrichment was -0.883.
The log2 enrichment of `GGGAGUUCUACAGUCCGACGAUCUGGAAGGAACGAGCCAGGAAGAGGGACUGGAACCAUCUCAGAAGCCAUGCCCCUCAGGCUGGAACUUGCCCUGUCUCCUCGCAGAUGAGGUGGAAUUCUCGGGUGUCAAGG` is reported as -1.93.
`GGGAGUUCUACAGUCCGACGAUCCCUGUGCUACACAUCGUAUGUACCGAAUCGGUUUUUUUGGUUUUUUUGGUUUUUUUGGGGAAAGUAUUAUGUUACGCCGUUCGGAUCUGCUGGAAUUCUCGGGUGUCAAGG` gave a log2 enrichment of -1.95.
For `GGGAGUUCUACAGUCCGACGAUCGCAGGAAGGAAAAACAAAUGGAAAUGCUUCGGAUAGUGGCAGGGGUGGGGGUUGCUAAGGAAAGGGUGGGAUGGGAGUGGGUAAAGAGUUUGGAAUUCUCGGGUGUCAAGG`, the log2 enrichment was 1.69.
`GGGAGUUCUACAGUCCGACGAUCUUUGAGGUCAAACGCCGCGGGGAACUGCAGCUGAUUAAGAUCUUCCAAUCCUCGGUGUUUGAGGCCUUCCUCAAGGGCAGCACGCUGGAAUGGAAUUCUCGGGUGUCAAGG` gave a log2 enrichment of -1.75.
`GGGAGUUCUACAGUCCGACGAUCAUGAAGAUGAAGAAGAGGAUGAUGAGGACGAGGAUGACGACGACGACGAAGAUGAUGAAGAUGAUGAUGAUGAAGAUGAUGAGGAGGAGGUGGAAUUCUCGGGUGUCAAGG` gave a log2 enrichment of -0.461.
`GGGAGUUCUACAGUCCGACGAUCUCCUGUGCUACACAUCGUAUGUACCGAAUCGGGGAGGGGUUUUUUUGGGGAAAAAGGGGAAAGUAUUAUGUUACGCCGUUCGGAUCUGCAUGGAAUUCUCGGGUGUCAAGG` has a log2 enrichment of 1.07.
`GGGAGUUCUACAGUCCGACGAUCUCCUGUGCUACACAUCGUAUGUACCGAAUCGGGUUUUUUUGGGAAAGGGUUUUUUUGGGAAAGUAUUAUGUUACGCCGUUCGGAUCUGCAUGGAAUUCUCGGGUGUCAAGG` gave a log2 enrichment of -0.38.
`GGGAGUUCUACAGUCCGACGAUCUGGGAGGUGGAUUUUGUGUAUUUUUUUAGCUCAUUUCCAGGGGUGGGAAUUUUUUUUUAAUAUGUGUCAUGAAUAAAGUUGUUUUUGAAAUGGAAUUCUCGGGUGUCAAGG` has a log2 enrichment of 3.29.

Block 3 — technique: protein binding microarray; form: double-stranded DNA, one strand shown; matrix: in vitro; tested at: not given; relative to: not given; reading: higher = stronger binding
Target: Histone acetyltransferase KAT6A, winged helix 2, GST fusion (KAT6A, Homo sapiens, UniProt Q92794, residues 85-181)
Notes: 8-mer, flanks averaged, mean of 2 arrays, mostly near background
Residues (chain): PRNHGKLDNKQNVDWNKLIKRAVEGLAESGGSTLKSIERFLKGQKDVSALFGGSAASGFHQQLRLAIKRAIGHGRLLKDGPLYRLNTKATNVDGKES
For `AGATGATA`, the E-score was 0.0699.
With `CCTGTGAA` the E-score was -0.0119.
With `GGAATGAC` the E-score was 0.0291.
For `AGCCAAAC`, the E-score was -0.035.
`AAGACTTC` has an E-score of -0.211.
With `AGGTATAC` the E-score was -0.0322.
`ACCGGGGC` has an E-score of 0.0664.
`TAAGACTA` gave an E-score of -0.262.
With `ACGGGGGA` the E-score was -0.0273.
The E-score of `AATATCAT` is reported as 0.103.
`CGTCTACC` gave an E-score of -0.184.
`AATCGATG` gave an E-score of 0.0115.

Further values, each from its own experiment
The fold induction of `PhoQ, residues 284 288 289 292 302 303 TLMATV` is reported as 6.47 (PhoP, residues 12 14 15 18 19 LYFRQ (Escherichia coli, UniProt P23836); Sort-seq, item: YFP reporter; E. coli; PhoQ-PhoP variant library, with: 10 µM Mg2+; relative to: high Mg2+ state, higher = stronger signaling).

Excerpt of the above (block 1):
`ATAGAACG` gave an E-score of 0.217.
With `ACCGCTAC` the E-score was -0.229.
With `ATTCATTC` the E-score was 0.267.
With `AAACGATA` the E-score was 0.239.
`GGTCCGCA` has an E-score of -0.283.
